Results gathered from unrelated publications.
Protocols differ between the studies behind these lines. Values joined by “and” are separate records of one study, mostly repeats; a detail may differ. Numbers after ± are the reported error.

The ΔTm of `C[n+]1ccc(/C=N/NC(=O)c2cccc(C(=O)N/N=C/c3cc[n+](C)c4ccccc34)c2)c2ccccc21` is reported as 11.6 ± 0.2 °C (myc22 MYC G4-DNA parallel; FRET melting; 1 µM, K1 buffer, DNA 0.2 µM, with: ds26 10 µM).
Under “SM/ceramide ratio C22”, `CCCCCCc1cccc([C@H](O)C[C@H](CO)NC(=O)CCCCCOc2ccc3ccccc3c2)c1` is recorded as 17 ,0 (ceramide transfer protein (CERT), human; cellular CERT activity, HPLC-MS/MS lipidomics; HeLa; 1 µM, 24 h).
The inhibition of `C=CC(=O)Nc1cc(-c2nn(C3CCN(CCNC(=O)[C@H](C)CCC45CC6CC(CC(C6)C4)C5)CC3)c3ncnc(N)c23)ccc1Oc1ccccc1` is reported as -12.9% (casein kinase 1 delta and epsilon; KiNativ; 2 µM).
For `CC(C)(CO)Cc1cn(C2CCCN(C(=O)c3ccc4c(c3)CCOC4(C)C)CC2)nn1` (stereo not shown), IC50 read “no inhibition” (FSP1 F15A; resorufin formation, inhibitor; with: NADH, resazurin).
For `CC(C)(O)c1ccn2c(-c3ccc(F)c(-c4ccc(F)cc4C#N)c3)cnc2c1F`, protein interaction read “increased” (GABAA receptor α1 G251D human; proximity ligation, item: γ2 subunit; hiPSC-derived GABAergic neurons α1 G251D; 5 µM, 24 h, with: hispidulin 10 µM).
The relative co-enrichment of `C=CC(=O)N1[C@H](c2ccc3c(c2)OCO3)c2[nH]c3ccccc3c2C[C@@H]1C(=O)N1CCN(C)CC1` is reported as 137% (human cyclin E1 N112C-3xFLAG:CDK2; co-IP with TMT proteomics, item: PNN; concentration not given, Q9H307; relative to: wild type DMSO).
`CC[n+]1cccc2cc(/C=N/NC(=O)c3ccc4ccc5ccc(C(=O)N/N=C/c6ccc7c(ccc[n+]7CC)c6)nc5c4n3)ccc21` has a ΔTm of 28.4 ± 0.7 °C (myc22 MYC G4-DNA parallel; FRET melting; 1 µM, K1 buffer, DNA 0.2 µM, with: ds26 10 µM).
The delta Tm of `NCCOc1cc(NC(=O)c2cc(Cl)cc(C(=O)Nc3cc(OCCN)c4ccccc4n3)n2)nc2ccccc12` is reported as 0 K (double-stranded DNA; FRET melting; 1 µM, pH 7.4, 60 mM potassium, with: oligonucleotide 200 nM).
`O=C(N/N=C/c1cc[n+](CC2CC2)c2ccccc12)c1cc(C(=O)N/N=C/c2cc[n+](CC3CC3)c3ccccc23)ncn1` gave a ΔTm of 5.6 ± 0.3 °C (myc22 MYC G4-DNA parallel; FRET melting; 1 µM, K1 buffer, DNA 0.2 µM, with: ds26 10 µM).
With `CN1CCCNC(=O)CCC(=O)NCCCN(C)CCCNc2cccc3c2C(=O)c2cccc(c2C3=O)NCCC1` the ΔTm was under 0.5 °C (double-stranded DNA; DNA thermal stabilisation, CD melting; 4.5 µM, pH 7.4, with: 1.5 µM DNA, 100 mM KCl).
`CCCCCCCCCCCC(=O)N[C@H](CO)C[C@@H](O)c1ccccc1`: “HexCer 24:1 amount” 21400 pmol/sample and 21100 pmol/sample and 19300 pmol/sample (ceramide transfer protein (CERT), human; cellular CERT activity, HPLC-MS/MS lipidomics; HeLa; 1 µM, 24 h, normalised to cell number).
For `C=CC(=O)Nc1cccc(Cn2ncc3cnc(Nc4cnn(CCOC)c4)nc32)c1`, “percent of control” read 43% (FGFR3 human; binding, KINOMEscan; 100 nM; lower = stronger binding).
With `Nc1ncc(-c2cc(-c3cnn(CC(F)(F)F)c3)ncc2F)nc1C(=O)NC1CNCC(F)C1` (stereo not shown) the remaining binding was 52% (PAK2; KINOMEscan; 1 µM; relative to: DMSO control).
For `Fc1ccc(Nc2nc(NC3CCCCC3)c3cc(C(F)(F)F)ccc3n2)cc1F`, the pIC50 was 6.8 (β2AR/β1AR TM5 chimera; β-arrestin2 recruitment, antagonist, BRET; with: isoprenaline 1 µM).
For `C[n+]1ccc(/C=N/NC(=O)c2cc(C(=O)N/N=C/c3cc[n+](C)c4ccccc34)ncn2)c2ccccc21`, the ΔTm was 3.2 ± 0.4 °C (myc22 MYC G4-DNA parallel; FRET melting; 1 µM, K1 buffer, DNA 0.2 µM, with: ds26 10 µM).
Under “log2 fold change”, `c1ccc(-c2n[nH]cc2-c2ccnc3ccccc23)nc1` is recorded as -0.15 (orf19.4518 Candida albicans; kinase binding, MIB/MS competition; Candida albicans lysate; 10 µM; relative to: DMSO).
The ΔTm of `C[n+]1cccc2cc(/C=N/NC(=O)c3cccc(C(=O)N/N=C/c4ccc5c(ccc[n+]5C)c4)c3)ccc21` is reported as 4.4 ± 0.3 °C (myc22 MYC G4-DNA parallel; FRET melting; 1 µM, K1 buffer, DNA 0.2 µM, with: ds26 10 µM).
The inhibition of `Cc1[nH]nc2c1N=C(c1ccccc1Cl)c1cnc(N3CCOCC3)cc1N2` is reported as 39% (sodium channel site 2, rat; radioligand binding; 10 µM).
`C[n+]1ccc(/C=N/NC(=O)c2cc(C(=O)N/N=C/c3cc[n+](C)cc3)ncn2)cc1` has a ΔTm of 1.7 ± 1.4 °C (myc22 MYC G4-DNA parallel; FRET melting; 1 µM, K1 buffer, DNA 0.2 µM).
For `CN(C)CCOc1cc(NC(=O)c2cccc(C(=O)Nc3cc(OCCN(C)C)c4ccccc4n3)n2)nc2ccccc12`, the delta Tm was 0.3 ± 0.2 K (double-stranded DNA; FRET melting; 1 µM, pH 7.4, 60 mM potassium, with: oligonucleotide 200 nM).
The ΔTm of `CC[n+]1cccc2cc(/C=N/NC(=O)C(=O)N/N=C/c3ccc4c(ccc[n+]4CC)c3)ccc21` is reported as 3.6 ± 0.6 °C (myc22 MYC G4-DNA parallel; FRET melting; 1 µM, K1 buffer, DNA 0.2 µM).
`CC(C)(C)c1ccc([C@H](O)C[C@H](CO)NC(=O)CCCCCOc2ccc3ccccc3c2)cc1`: “SM/ceramide ratio C16” 23 ,1 (ceramide transfer protein (CERT), human; cellular CERT activity, HPLC-MS/MS lipidomics; HeLa; 1 µM, 24 h).
For `C[n+]1cc(/C=N/NC(=O)c2cncc(C(=O)N/N=C/c3cc4ccccc4[n+](C)c3)n2)cc2ccccc21`, the ΔTm was 15.4 ± 0.2 °C (myc22 MYC G4-DNA parallel; FRET melting; 1 µM, K1 buffer, DNA 0.2 µM, with: ds26 10 µM).
For `CCCCCCc1cccc(C(O)CC(CO)NC(=O)CCCCCCCCCCNC(C)=O)c1` (stereo not shown), “SM/ceramide ratio C18” read 26 ,0 and 20 ,0 (ceramide transfer protein (CERT), human; cellular CERT activity, HPLC-MS/MS lipidomics; HeLa; 1 µM, 24 h).
For `Fc1ccc(Nc2nc(NC3CCCCC3)c3cc(Br)ccc3n2)cc1F`, the maximal inhibition was 4.2% (β2AR/β1AR TM5 chimera; β-arrestin2 recruitment, antagonist, BRET; relative to: isoprenaline maximal response).
